Results from different studies.
Lines come from different studies, so protocols differ. “And” joins repeats or separate records; there may be more than shown.
Target: Calcium/calmodulin-dependent protein kinase type 1D (CAMK1D, Homo sapiens, UniProt Q8IU85)

| SMILES | test | system | conditions | scale | measurement | result |
| --- | --- | --- | --- | --- | --- | --- |
| CS(=O)(=O)Nc1cccc(-c2csc3cnc(Nc4ccc(N5CCN(CCCCCOc6cccc7c6C(=O)N(C6CCC(=O)NC6=O)C7=O)CC5)cc4)nc23)c1 (stereo not shown) | probe labelling, inhibitor, KiNativ chemoproteomics | MOLT-4 | 1 µM |  | inhibition | -5.53% |
| C=CC(=O)Nc1cccc(-c2cnc3[nH]cc(C(=O)NC(C)(C)C)c3n2)c1 | enzyme activity, inhibitor |  | 0.1 µM |  | inhibition | 13% |
| NC(=O)C[C@H]1CCc2sc3ncnc(O[C@H]4CC[C@H](N5CCOCC5)CC4)c3c21 | enzyme activity, inhibitor |  | 10 µM |  | inhibition | 1% |
| CNC(=O)C1CCN(c2cc(C)c(F)cc2NC(=O)c2ccc(-c3cc(O)ccc3C)c(C)c2)CC1 | binding, competition with immobilised ligand |  | 1 µM |  | remaining binding | 100% |
| COc1ccc(NC(=O)Nc2ccc3c(c2)C(=O)N(C(C)CO)CC(C)C(CN(C)Cc2ccc4c(c2)OCO4)O3)cc1 (stereo not shown) | kinase activity |  | 0.03 µM | baseline: control | remaining activity | 111% |
| CCn1cc(C(=O)O)c(=O)c2c(N)c(F)c(NC3CCCCC3)cc21 | kinase activity |  | 0.1 µM, together with: ATP at Km |  | inhibition | 2.5% |
| O=C=[N][Ru-4]123([n]4c5ccc(O)cc5c5c6c(c7cc(F)c[n+]1c7c54)C(=O)NC6=O)[S+]1CC[S+]2CC[S+]3CC1 (stereo not shown) | enzyme activity |  | 100 nM, human enzyme, together with: 10 µM ATP | baseline: untreated | remaining activity | 49% |
| C=CC(=O)N1CCCC(n2c(=O)c3ncccc3n(Cc3ccc(Oc4ccccc4)cc3)c2=O)C1 (stereo not shown) | thermal proteome profiling |  | 10 µM, destabilized proteins, unit not given | baseline: vehicle | melting temperature shift | -10.2 |
| CC(C)=CC1OC(C)(C)C2C=C3C(=O)C(Cl)=CC(O)C3C3C(O)C4OC4C(=O)C132 (stereo not shown) | cell-free assay, competition with immobilised ligand |  | 10 µM |  | remaining binding | 92% |
| CCN1CCN(Cc2ccc(C(=O)Nc3ccc(C)c(NCc4cnc5[nH]ccc5c4OC)c3)cc2C(F)(F)F)CC1 | binding, competition with immobilised ligand |  | 1 µM |  | remaining binding | 94% |
| C=CC(=O)N1CCc2ccc(-n3c(=O)ccc4cnc5ccc(-c6cnn(C)c6)cc5c43)cc21 | KINOMEscan |  | 1 µM | baseline: DMSO control | remaining binding | 100% |
| COc1cc(Nc2nc(C)cc(-c3cnn4nc(OC)ccc34)n2)cc(C(F)(F)F)c1 | inhibitor |  | 1 µM | baseline: control | remaining activity | 84% |
| COCC12C(=O)NC3C4(C(OC)CC1O)C1CC5(O)C(OC)C(O)C(OC(C)=O)(C1C5OC(=O)c1ccccc1)C3(O)C(OC)C24 (stereo not shown) | kinase activity, inhibitor, ProQinase kinase profiling |  | 25 µM | baseline: control | remaining activity | 104% and 108% |
| Nc1ncc2c(n1)-c1c([nH]c3ccc(C4=CCOCC4)cc13)CCC2 | binding, competition with immobilised ligand |  | 1 µM |  | remaining binding | 92% |
| C=CC(=O)N1Cc2nc(-c3cc(-c4cc(Cl)cnc4Cl)c(F)cc3F)n(-c3ccncn3)c2C1 | cell-free assay, inhibitor |  | 1 µM |  | inhibition | -3.3% |
| Cc1cccc(O[C@H]2CCC[C@@H](C(C)CNCc3ccncc3)C2)c1 (relative stereo) | enzyme activity, inhibitor |  | 1 µM |  | inhibition | 2% |
